# Published values from different studies.
# Compare with care: the assays were run in different laboratories.
# Organism: Mycobacterium tuberculosis
SMILES,assay,system,MIC
Cc1cn(C2CCN(Cc3cccc(Oc4ccccc4)n3)CC2)c(=O)[nH]c1=O,,H37Rv Rv3065 (mmr) knockout,> 250 µg/mL
COC(=O)C=C1SC(=NN=Cc2ccc(OC(=O)CN3C(=O)CSC3=O)cc2)NC1=O,Alamar blue,MDR 210,31.6 to 45.7 µM
CO[C@H]1/C=C/O[C@@]2(C)Oc3c(C)c(O)c4c(O)c(c(/C=N/N5CCN(C)CC5)c(O)c4c3C2=O)NC(=O)/C(C)=C\C=C\[C@H](C)[C@H](O)[C@@H](C)[C@@H](O)[C@@H](C)[C@H](OC(C)=O)[C@@H]1C,,H37Rv gyrA D94K mutant,0.03 µg/mL
NC(=S)NN=Cc1ccc(OC(=O)CN2C(=O)CSC2=O)c(Cl)c1,Alamar blue,MDR 210,31.6 to 45.7 µM
CO[C@H]1/C=C/O[C@@]2(C)Oc3c(C)c(O)c4c(O)c(c(/C=N/N5CCN(C)CC5)c(O)c4c3C2=O)NC(=O)/C(C)=C\C=C\[C@H](C)[C@H](O)[C@@H](C)[C@@H](O)[C@@H](C)[C@H](OC(C)=O)[C@@H]1C,,H37Rv,0.002 µM
Oc1cc(Cl)ccc1Oc1ccc(Cl)cc1Cl,,mc2 5855,25 µg/mL
Cc1cn(C2CCN(Cc3ccnc(Oc4cccc(Cl)c4)c3)CC2)c(=O)[nH]c1=O,,H37Rv Rv1258c (tap) knockout,31.2 µg/mL
CO[C@H]1/C=C/O[C@@]2(C)Oc3c(C)c(O)c4c(O)c(c(/C=N/N5CCN(C)CC5)c(O)c4c3C2=O)NC(=O)/C(C)=C\C=C\[C@H](C)[C@H](O)[C@@H](C)[C@@H](O)[C@@H](C)[C@H](OC(C)=O)[C@@H]1C,Alamar blue,MDR 210,2.43 µM
O=[N+]([O-])c1cn2c(n1)OC[C@@H](OCc1ccc(OC(F)(F)F)cc1)C2,,H37Rv rpoB S450L mutant,≤ 0.03 µg/mL
CS(=O)(=O)Nc1ncn(-c2cc(F)c(COc3ccc(OS(=O)(=O)F)cc3)c(F)c2)n1,,clinical strains,0.042 µM
CN[C@@H]1[C@H](O)[C@H](NC)[C@H]2O[C@@]3(O)C(=O)C[C@@H](C)O[C@H]3O[C@@H]2[C@H]1O,,MDR clinical isolates,> 64 µg/mL
NNC(=O)c1ccncc1,,H37Rv gyrA D94K mutant,0.06 µg/mL

# A few entries again:
SMILES,assay,system,MIC
COC(=O)C=C1SC(=NN=Cc2ccc(OC(=O)CN3C(=O)CSC3=O)cc2)NC1=O,Alamar blue,MDR 210,31.6 to 45.7 µM
